{"data": "Assay results gathered from unrelated publications", "PIK3CA": "Phosphatidylinositol 4,5-bisphosphate 3-kinase catalytic subunit alpha isoform (PIK3CA, Homo sapiens, UniProt P42336)", "PIK3CD": "Phosphatidylinositol 4,5-bisphosphate 3-kinase catalytic subunit delta isoform (PIK3CD, Homo sapiens, UniProt O00329)", "AMY2": "Pancreatic alpha-amylase (AMY2, Sus scrofa, UniProt P00690)", "CHEK1": "Serine/threonine-protein kinase Chk1 (CHEK1, Homo sapiens, UniProt O14757)", "PIK3CG": "Phosphatidylinositol 4,5-bisphosphate 3-kinase catalytic subunit gamma isoform (PIK3CG, Homo sapiens, UniProt P48736)", "DYRK1A": "Dual specificity tyrosine-phosphorylation-regulated kinase 1A (DYRK1A, Homo sapiens, UniProt Q13627)", "CA9": "Carbonic anhydrase 9 (CA9, Homo sapiens, UniProt Q16790)", "PPO3": "PPO3 (Agaricus bisporus, UniProt C7FF04)", "FLT3 ITD": "Receptor-type tyrosine-protein kinase FLT3 (FLT3, Homo sapiens, UniProt P36888, ITD)", "note": "Protocols differ between the studies behind these lines. “And” joins repeats or separate records; there may be more than shown.", "sequence of UniProt O14757 (whole entry, looked up)": "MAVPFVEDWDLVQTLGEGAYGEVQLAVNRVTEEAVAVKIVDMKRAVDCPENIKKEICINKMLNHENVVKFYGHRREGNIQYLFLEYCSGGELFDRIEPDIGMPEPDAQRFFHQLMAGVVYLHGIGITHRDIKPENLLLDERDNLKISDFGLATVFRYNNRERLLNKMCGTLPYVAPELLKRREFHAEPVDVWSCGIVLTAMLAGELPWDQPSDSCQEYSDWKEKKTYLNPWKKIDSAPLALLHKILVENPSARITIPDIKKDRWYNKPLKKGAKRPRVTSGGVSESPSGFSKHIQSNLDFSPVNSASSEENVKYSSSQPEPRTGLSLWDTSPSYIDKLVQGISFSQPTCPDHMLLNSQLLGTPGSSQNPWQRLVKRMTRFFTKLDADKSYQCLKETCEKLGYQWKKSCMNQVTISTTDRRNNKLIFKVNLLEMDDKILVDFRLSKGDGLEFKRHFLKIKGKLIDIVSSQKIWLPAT", "sequence of UniProt O00329 (whole entry, looked up)": "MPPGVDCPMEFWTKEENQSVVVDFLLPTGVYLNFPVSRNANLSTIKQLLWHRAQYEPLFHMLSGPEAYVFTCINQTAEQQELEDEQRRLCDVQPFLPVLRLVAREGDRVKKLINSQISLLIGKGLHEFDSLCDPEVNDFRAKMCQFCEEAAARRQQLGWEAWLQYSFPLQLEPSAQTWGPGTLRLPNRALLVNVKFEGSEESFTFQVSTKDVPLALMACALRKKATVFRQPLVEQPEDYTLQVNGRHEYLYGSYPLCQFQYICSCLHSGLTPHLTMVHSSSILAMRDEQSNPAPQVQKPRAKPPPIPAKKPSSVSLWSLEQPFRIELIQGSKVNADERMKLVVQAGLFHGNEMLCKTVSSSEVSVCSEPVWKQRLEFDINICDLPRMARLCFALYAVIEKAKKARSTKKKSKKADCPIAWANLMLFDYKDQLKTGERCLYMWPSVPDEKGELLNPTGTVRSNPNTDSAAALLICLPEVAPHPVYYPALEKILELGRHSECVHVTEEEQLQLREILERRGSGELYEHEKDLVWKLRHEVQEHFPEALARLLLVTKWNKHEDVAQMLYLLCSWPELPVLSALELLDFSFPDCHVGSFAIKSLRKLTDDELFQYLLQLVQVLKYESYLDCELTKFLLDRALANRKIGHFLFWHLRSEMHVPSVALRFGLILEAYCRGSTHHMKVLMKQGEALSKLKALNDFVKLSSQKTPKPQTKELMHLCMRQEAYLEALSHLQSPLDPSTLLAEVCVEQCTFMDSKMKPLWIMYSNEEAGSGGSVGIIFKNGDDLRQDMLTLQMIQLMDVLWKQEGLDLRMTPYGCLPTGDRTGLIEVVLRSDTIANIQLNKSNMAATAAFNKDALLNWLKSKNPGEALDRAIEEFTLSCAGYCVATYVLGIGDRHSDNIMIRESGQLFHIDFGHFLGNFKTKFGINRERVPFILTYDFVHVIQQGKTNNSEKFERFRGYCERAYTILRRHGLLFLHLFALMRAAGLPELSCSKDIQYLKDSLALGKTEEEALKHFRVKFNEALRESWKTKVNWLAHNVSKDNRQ", "sequence of UniProt P48736 (whole entry, looked up)": "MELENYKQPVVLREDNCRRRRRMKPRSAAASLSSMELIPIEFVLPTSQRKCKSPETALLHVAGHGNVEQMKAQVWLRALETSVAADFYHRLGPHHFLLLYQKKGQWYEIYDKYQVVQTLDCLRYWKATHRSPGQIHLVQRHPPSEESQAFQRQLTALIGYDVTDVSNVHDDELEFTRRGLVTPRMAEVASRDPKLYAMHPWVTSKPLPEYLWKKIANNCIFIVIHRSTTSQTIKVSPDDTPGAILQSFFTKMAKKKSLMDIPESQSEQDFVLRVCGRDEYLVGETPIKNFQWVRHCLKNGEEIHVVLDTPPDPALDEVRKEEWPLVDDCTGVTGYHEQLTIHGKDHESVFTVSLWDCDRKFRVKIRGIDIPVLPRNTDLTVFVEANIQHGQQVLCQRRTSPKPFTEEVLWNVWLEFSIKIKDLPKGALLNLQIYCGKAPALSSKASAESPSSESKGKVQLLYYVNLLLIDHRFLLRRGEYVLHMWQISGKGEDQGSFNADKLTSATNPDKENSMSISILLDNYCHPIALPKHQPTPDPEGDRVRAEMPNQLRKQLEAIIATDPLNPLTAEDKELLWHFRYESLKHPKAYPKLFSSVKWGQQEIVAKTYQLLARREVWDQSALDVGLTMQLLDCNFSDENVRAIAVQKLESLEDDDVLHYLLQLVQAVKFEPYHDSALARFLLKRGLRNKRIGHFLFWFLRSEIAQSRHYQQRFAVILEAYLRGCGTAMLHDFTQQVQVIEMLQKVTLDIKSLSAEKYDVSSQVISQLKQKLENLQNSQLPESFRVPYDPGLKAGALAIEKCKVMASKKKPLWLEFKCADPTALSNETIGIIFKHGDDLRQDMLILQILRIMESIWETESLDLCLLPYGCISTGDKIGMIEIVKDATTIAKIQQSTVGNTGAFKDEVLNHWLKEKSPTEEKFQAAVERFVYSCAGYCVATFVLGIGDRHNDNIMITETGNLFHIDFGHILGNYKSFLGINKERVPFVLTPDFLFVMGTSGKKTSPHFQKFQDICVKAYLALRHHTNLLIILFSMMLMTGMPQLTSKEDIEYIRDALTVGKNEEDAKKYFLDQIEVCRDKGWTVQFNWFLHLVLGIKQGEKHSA", "sequence of UniProt P00690 (whole entry, looked up)": "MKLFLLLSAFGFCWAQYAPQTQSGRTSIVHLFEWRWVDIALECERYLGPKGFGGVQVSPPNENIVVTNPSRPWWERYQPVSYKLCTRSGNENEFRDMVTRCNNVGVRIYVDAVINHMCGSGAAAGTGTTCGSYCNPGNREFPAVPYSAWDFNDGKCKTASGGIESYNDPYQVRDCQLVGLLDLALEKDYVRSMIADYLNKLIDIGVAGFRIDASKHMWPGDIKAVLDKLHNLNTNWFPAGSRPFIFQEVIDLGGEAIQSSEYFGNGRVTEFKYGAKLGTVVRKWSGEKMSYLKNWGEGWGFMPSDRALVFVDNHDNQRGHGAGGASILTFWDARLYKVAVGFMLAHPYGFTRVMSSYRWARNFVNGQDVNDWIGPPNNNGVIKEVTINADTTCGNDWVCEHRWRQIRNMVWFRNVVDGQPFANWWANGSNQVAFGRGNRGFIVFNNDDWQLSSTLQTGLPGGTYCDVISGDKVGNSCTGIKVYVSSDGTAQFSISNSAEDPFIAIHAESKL", "sequence of UniProt C7FF04 (whole entry, looked up)": "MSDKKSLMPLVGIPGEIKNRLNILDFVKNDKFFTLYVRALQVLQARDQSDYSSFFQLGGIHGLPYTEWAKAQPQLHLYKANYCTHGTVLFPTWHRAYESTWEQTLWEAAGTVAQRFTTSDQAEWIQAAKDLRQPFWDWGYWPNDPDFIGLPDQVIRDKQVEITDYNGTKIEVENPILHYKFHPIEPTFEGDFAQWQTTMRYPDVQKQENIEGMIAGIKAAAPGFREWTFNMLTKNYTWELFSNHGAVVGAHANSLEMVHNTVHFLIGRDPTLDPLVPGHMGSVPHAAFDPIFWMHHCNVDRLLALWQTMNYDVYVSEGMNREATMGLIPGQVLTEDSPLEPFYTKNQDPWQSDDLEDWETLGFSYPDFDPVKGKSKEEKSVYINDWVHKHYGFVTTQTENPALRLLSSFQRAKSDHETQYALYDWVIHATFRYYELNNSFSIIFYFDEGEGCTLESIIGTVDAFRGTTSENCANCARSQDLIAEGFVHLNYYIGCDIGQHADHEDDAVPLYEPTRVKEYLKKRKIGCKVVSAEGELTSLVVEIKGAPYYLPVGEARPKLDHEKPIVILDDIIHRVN", "sequence of UniProt Q9NSU2 (whole entry, looked up)": "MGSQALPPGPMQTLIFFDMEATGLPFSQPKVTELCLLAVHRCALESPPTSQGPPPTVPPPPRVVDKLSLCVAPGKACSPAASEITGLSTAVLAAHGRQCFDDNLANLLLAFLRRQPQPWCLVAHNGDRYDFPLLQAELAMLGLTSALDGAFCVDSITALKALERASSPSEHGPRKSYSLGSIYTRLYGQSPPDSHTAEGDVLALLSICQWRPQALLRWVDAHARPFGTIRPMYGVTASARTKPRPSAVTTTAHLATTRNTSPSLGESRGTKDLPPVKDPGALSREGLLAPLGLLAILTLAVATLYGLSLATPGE"}
{"SMILES": "O=C1C(=Nc2ccccc2Br)c2ccccc2N1Cc1ccccc1", "target": "PIK3CA", "assay": "enzyme activity, inhibitor, ADP detection", "IC50": "95.4 nM"}
{"SMILES": "O=C(O)C1=CC(=C(c2ccc(O)c(C(=O)O)c2)c2ccc(O)c(C(=O)O)c2)C=CC1=O", "target": "TREX1 (Homo sapiens, UniProt Q9NSU2)", "assay": "enzyme activity, inhibitor", "IC50": "463 nM"}
{"SMILES": "CN(C)C(=O)c1cc2cnc(Nc3cc(C(=O)O)cc(-c4cccc5c(=O)cc(N6CCOCC6)oc45)c3)nc2n1C1CCCC1", "target": "PIK3CD", "assay": "enzyme activity, inhibitor, radiometric", "IC50": "4710 nM"}
{"SMILES": "Fc1ccc(/C=N/N=C/c2ccc(F)cc2)cc1", "target": "AMY2", "assay": "enzyme activity, inhibitor", "IC50": "295000 nM"}
{"SMILES": "O=C(CCc1ccc(Cl)cc1)N1C(=O)C(=Nc2ccc(Cl)cc2Br)c2ccccc21", "target": "PIK3CD", "assay": "enzyme activity, inhibitor, ADP detection", "IC50": "710 nM"}
{"SMILES": "COC(=O)Cc1ccc2c(c1)NC(=O)c1ccc(-c3ccc(OC)cc3)cc1N2", "target": "CHEK1", "assay": "enzyme activity, inhibitor", "IC50": "> 10000 nM"}
{"SMILES": "Cc1nc(Nc2ccc3c(c2)/C(=C/c2ccccc2C)C(=O)N3)c2ccccc2n1", "target": "PIK3CG", "assay": "enzyme activity, inhibitor, ADP detection", "IC50": "103 nM"}
{"SMILES": "c1cnn2ncc(-c3ccnc(N4CC5CCC(C4)O5)n3)c2c1", "target": "DYRK1A", "assay": "cell-free assay, TR-FRET", "IC50": "3390 nM"}
{"SMILES": "NS(=O)(=O)c1ccc(Br)c(C(=O)Nc2cccc(NC(=O)C3CCCCC3)c2)c1", "target": "CA9", "assay": "enzyme activity, inhibitor", "IC50": "53 nM"}
{"SMILES": "Clc1cccc(/C=N/N=C/c2cccc(Cl)c2)c1", "target": "AMY2", "assay": "enzyme activity, inhibitor", "IC50": "368000 nM"}
{"SMILES": "COc1ccc(-c2ccccc2)cc1NC(=O)Nc1cnc(C#N)cn1", "target": "CHEK1", "assay": "enzyme activity, inhibitor", "IC50": "> 10000 nM"}
{"SMILES": "O=C(NCc1cc(O)c(O)c(Br)c1)c1ccco1", "target": "Replicase polyprotein 1ab, papain-like protease (rep, Porcine epidemic diarrhea virus, UniProt P0C6Y4)", "assay": "enzyme activity, inhibitor, FRET", "IC50": "8550 nM"}
{"SMILES": "O=C1Nc2cc(C(O)C(=O)O)ccc2Nc2cc(Cl)ccc21 (stereo not shown)", "target": "CHEK1", "assay": "enzyme activity, inhibitor", "IC50": "6640 nM"}
{"SMILES": "NC(=O)c1ccc[n+]([C@@H]2O[C@H](COP(=O)([O-])OP(=O)(O)OC[C@H]3O[C@@H](n4cnc5c(N)ncnc54)[C@H](O)[C@@H]3O)[C@@H](O)[C@H]2O)c1", "target": "TIPARP (Homo sapiens, UniProt Q7Z3E1)", "assay": "enzyme activity, inhibitor", "IC50": "1100 nM and 1200 nM"}
{"SMILES": "FC(F)(F)C1CCN(c2nccc(-c3cnn4ncccc34)n2)CC1", "target": "DYRK1A", "assay": "cell-free assay, TR-FRET", "IC50": "479 nM"}
{"SMILES": "CC(Nc1ccc(Nc2ccccc2)cc1)C(=O)Nc1ccc(S(N)(=O)=O)cc1 (stereo not shown)", "target": "CA9", "assay": "enzyme activity, inhibitor", "IC50": "39.8 nM"}
{"SMILES": "O=C(CSc1nc2ccccc2cc1C=Nn1c(S)nnc1-c1ccccc1)Nc1ccc(Cl)cc1", "target": "PPO3", "assay": "enzyme activity, inhibitor", "IC50": "25700 nM"}
{"SMILES": "Cc1cnc(-c2ccc(-c3ccc(NC(=O)Nc4c(F)cc(F)cc4F)cc3F)c3c2C(=O)NC3)[nH]1", "target": "BLK (Homo sapiens, UniProt P51451)", "assay": "enzyme activity, inhibitor", "IC50": "0.7 nM"}
{"SMILES": "Cc1ccc(NC(=O)CSc2nc3ccccc3cc2C=Nn2c(S)nnc2-c2ccccc2)cc1", "target": "PPO3", "assay": "enzyme activity, inhibitor", "IC50": "30900 nM"}
{"SMILES": "Cc1nc(N(Cc2ccccc2)c2ccc3c(c2)/C(=C/c2ccccc2)C(=O)N3Cc2ccccc2)c2ccccc2n1 (mixture of isomers)", "target": "PIK3CG", "assay": "enzyme activity, inhibitor, ADP detection", "IC50": "155 nM"}
{"SMILES": "CCCN(CC)c1ccc(Br)cc1NC(=O)Nc1cnc(C#N)cn1", "target": "CHEK1", "assay": "enzyme activity, inhibitor", "IC50": "> 10000 nM"}
{"SMILES": "CN(C)C(=O)c1cc2cnc(Nc3ccc(-c4cccc5c(=O)cc(N6CCOCC6)oc45)cc3)nc2n1C1CCCC1", "target": "PIK3CD", "assay": "enzyme activity, inhibitor, radiometric", "IC50": "127 nM"}
{"SMILES": "COc1cc(-c2ccc3c(c2)Nc2cc(CC(=O)NCc4cccs4)ccc2NC3=O)ccc1[N+](=O)[O-]", "target": "CHEK1", "assay": "enzyme activity, inhibitor", "IC50": "5.26 nM"}
{"SMILES": "Cc1n[nH]c2ccc3nc(-c4ccc(C(=O)N(C)CCN(C)C)nc4)c4c(c3c12)CCCCC4", "target": "FLT3 ITD", "assay": "enzyme activity, inhibitor", "IC50": "> 1000 nM"}
{"SMILES": "Cc1c(N2CCOCC2)oc2c(-c3ccc(Nc4ncc5cc(C(=O)N(C)C)n(C6CCCC6)c5n4)cc3F)cccc2c1=O", "target": "PIK3CD", "assay": "enzyme activity, inhibitor, radiometric", "IC50": "2760 nM"}
{"SMILES": "CN(C)CCNC(=O)c1ccc(-c2nc3ccc4[nH]ncc4c3c3c2CCCC3)cc1", "target": "FLT3 (Homo sapiens, UniProt P36888)", "assay": "enzyme activity, inhibitor", "IC50": "186 nM"}
{"SMILES": "O=C1C(=Nc2ccc(Cl)cc2Br)c2ccccc2N1Cc1ccc(Br)cc1", "target": "PIK3CG", "assay": "enzyme activity, inhibitor, ADP detection", "IC50": "2.17 nM"}
{"SMILES": "Cc1cc(OCC(N)=O)c(C)cc1CN1CCOCC1", "target": "ADRB2 (Homo sapiens, UniProt P07550)", "assay": "calcium signal, antagonist, fluorescence", "IC50": "13000 nM"}
{"SMILES": "O=C1C(=Nc2ccccc2I)c2ccccc2N1Cc1ccc([N+](=O)[O-])cc1", "target": "PIK3CA", "assay": "enzyme activity, inhibitor, ADP detection", "IC50": "34.6 nM"}
{"SMILES": "CC(c1cccc(S(N)(=O)=O)c1)N(C)C(=O)c1ccc(NC2=NS(=O)(=O)c3ccccc32)cc1 (stereo not shown)", "target": "CA9", "assay": "enzyme activity, inhibitor", "IC50": "75 nM"}
{"SMILES": "O=C(NCc1cc(O)c(O)c(Br)c1)c1ccccc1", "target": "Replicase polyprotein 1ab, main protease (rep, Porcine epidemic diarrhea virus, UniProt P0C6Y4)", "assay": "enzyme activity, inhibitor, FRET", "IC50": "6210 nM"}
{"SMILES": "CC(=O)Nc1ccc2oc(C(=O)NC3CCCN(CC(=O)Nc4ccc(S(N)(=O)=O)cc4)C3)cc2c1 (stereo not shown)", "target": "CA9", "assay": "enzyme activity, inhibitor", "IC50": "67.6 nM"}
{"SMILES": "CC(C)c1cccc(C(C)C)c1N=C1C(=O)N(Cc2ccccc2)c2ccccc21", "target": "PIK3CD", "assay": "enzyme activity, inhibitor, ADP detection", "IC50": "201 nM"}
{"SMILES": "Cc1cc(C(=O)Oc2ccc(NC(=O)c3sccc3C)cc2)ccc1S(N)(=O)=O", "target": "CA9", "assay": "enzyme activity, inhibitor", "IC50": "238 nM"}
{"SMILES": "Cc1n[nH]c2ccc3nc(-c4ccc(C(=O)N(C)CCN(C)C)cc4)c4c(c3c12)CCCCC4", "target": "FLT3 ITD", "assay": "enzyme activity, inhibitor", "IC50": "> 1000 nM"}
{"SMILES": "O=C1Nc2ccccc2C1=Nc1ccccc1I", "target": "PIK3CD", "assay": "enzyme activity, inhibitor, ADP detection", "IC50": "369 nM"}
{"SMILES": "Cc1cc(C(=O)N2CCCCC2C)ccc1NC(=O)c1nccc2c(S(N)(=O)=O)cccc12 (stereo not shown)", "target": "CA9", "assay": "enzyme activity, inhibitor", "IC50": "85 nM"}
{"SMILES": "Fc1ccc(/C=N/N=C/c2ccc(F)cc2F)c(F)c1", "target": "AMY2", "assay": "enzyme activity, inhibitor", "IC50": "116000 nM"}
{"SMILES": "COc1cc(N)c(Cl)cc1NC(=O)Nc1cnc(C#N)cn1", "target": "CHEK1", "assay": "enzyme activity, inhibitor", "IC50": "3.93 nM"}
{"SMILES": "Cc1cc([C@@H](C)Nc2ccccc2C(=O)O)c2nc(N3CCC(F)(F)CC3)c(C#N)c(=O)n2c1", "target": "PIK3C2A (Homo sapiens, UniProt O00443)", "assay": "enzyme activity, inhibitor, ADP detection", "IC50": "> 10000 nM"}
{"note": "Some of these lines once more:"}
{"SMILES": "CC(c1cccc(S(N)(=O)=O)c1)N(C)C(=O)c1ccc(NC2=NS(=O)(=O)c3ccccc32)cc1 (stereo not shown)", "target": "CA9", "assay": "enzyme activity, inhibitor", "IC50": "75 nM"}
{"SMILES": "O=C(NCc1cc(O)c(O)c(Br)c1)c1ccccc1", "target": "Replicase polyprotein 1ab, main protease (rep, Porcine epidemic diarrhea virus, UniProt P0C6Y4)", "assay": "enzyme activity, inhibitor, FRET", "IC50": "6210 nM"}
{"SMILES": "CC(=O)Nc1ccc2oc(C(=O)NC3CCCN(CC(=O)Nc4ccc(S(N)(=O)=O)cc4)C3)cc2c1 (stereo not shown)", "target": "CA9", "assay": "enzyme activity, inhibitor", "IC50": "67.6 nM"}
{"SMILES": "CC(C)c1cccc(C(C)C)c1N=C1C(=O)N(Cc2ccccc2)c2ccccc21", "target": "PIK3CD", "assay": "enzyme activity, inhibitor, ADP detection", "IC50": "201 nM"}
{"SMILES": "Cc1cc(C(=O)Oc2ccc(NC(=O)c3sccc3C)cc2)ccc1S(N)(=O)=O", "target": "CA9", "assay": "enzyme activity, inhibitor", "IC50": "238 nM"}
{"SMILES": "Cc1n[nH]c2ccc3nc(-c4ccc(C(=O)N(C)CCN(C)C)cc4)c4c(c3c12)CCCCC4", "target": "FLT3 ITD", "assay": "enzyme activity, inhibitor", "IC50": "> 1000 nM"}
